Experimental data from different studies.
Each line is one published result; not all experiments were run side by side.

SMILES | test | test system | setting | measurement | value
CCO[C@H]1CCN(Cc2c(OC)cc(C)c3[nH]ccc23)[C@H](c2ccc(C(=O)O)cc2)C1 | item: Dyspepsia | PNH patients, active haemolysis | oral, 100 mg twice daily, extension phase | patients with adverse event | 20%
COc1cc(Nc2ncc3c(n2)-c2ccc(Cl)cc2C(c2c(F)cccc2OC)=NC3)ccc1C(=O)O | item: Dyspnea, grade 3 | cancer patients, phase 1/2 | oral, dose not given, with: pembrolizumab | patients with adverse event | 4%
C[C@@H](Nc1cc(F)cc(F)c1)c1cc(C(=O)N(C)C)cc2c(=O)cc(N3CCOCC3)oc12 | item: Tachycardia | advanced solid tumour patients | oral, dose not given, dose expansion | patients discontinuing for AE | 0%
Cc1cc(-c2nnc(N)nc2-c2ccc(F)cc2)cc(Cl)n1 | item: Myositis | IO-naive mCRPC patients, male | oral, dose not given, treatment-related, grade 2 | patients with immune-mediated AE | 0%
CCOc1c([C@H](C)n2nc(C)c3c(N)ncnc32)cc(Cl)c(F)c1[C@@H]1CNC(=O)C1 | ECG | previously treated B-cell malignancy patients | oral, 30 mg once daily, baseline below thresholds | patients with HR above 100 bpm | 7.7%
O=C(Nc1nc2cccc(-c3ccc(CN4CCS(=O)(=O)CC4)cc3)n2n1)C1CC1 | – | rheumatoid arthritis patients | oral, 300 mg once daily, 4 weeks, TEAE regardless of relatedness | patients with upper abdominal pain | 0%
FC(F)(F)c1ccc(CNc2ccc(Cc3c[nH]c4ncc(Cl)cc34)cn2)cn1 | item: skin hypopigmentation | advanced solid tumour patients | oral, 1000 mg/day, all grades, all cohorts | patients with treatment-related adverse event | 9%
C=CC(=O)NC1CCN(c2ncc3ncnc(Nc4ccc(Oc5ccc6c(c5)ncn6C)c(C)c4)c3n2)CC1 | – | male patients | oral, dose not given, treatment-related adverse events | patients with upper abdominal pain | 0%
C=CC(=O)Nc1cc(Nc2nccc(-c3cn(C)c4ccccc34)n2)c(OC)cc1N(C)CCN(C)C | item: treatment-related grade ≥3 Thrombocytopenia | EGFR-mutant MET-altered NSCLC | oral, dose not given, all | patients with adverse events | 1%
Cc1cc(NC2CCN(C(=O)OC3CCN(C(=O)/C=C/CN(C)C)C3)CC2)n2ncc(C(C)C)c2n1 (centres unmarked) | – | patients with advanced solid tumours | dose not given, QD arm, grade 3 or higher | patients with Constipation | 0%
CNC(=O)c1ccc(-c2cnc3ncc(Cc4ccc5ncccc5c4)n3n2)cc1F | item: Pyrexia, all grades | cancer patients | oral, 600 mg twice daily, other expansion cohort, any causality | patients with adverse event | 11%
C[C@@H](c1ccc2nccn2c1)n1nnc2ncc(-c3cnn(C)c3)nc21 | item: Dyspnea grade ≥3 | EGFR-mutant MET-altered NSCLC | oral, study | patients with treatment-related AEs | 0%
CC(C)C[C@H](NC(=O)CNC(=O)c1cc(Cl)ccc1Cl)B(O)O | item: Hyperglycaemia, all grades | newly diagnosed multiple myeloma patients | oral, dose not given, maintenance phase, new onset, cycle 17 or later | patients with adverse event | 17%
CNC(=O)c1cc(Oc2ccc(NC(=O)Nc3cc(C(C)(C)C)nn3-c3ccc4ncccc4c3)c(F)c2)ccn1 | – | patients | oral, dose not given, cycles 1 and 2, Low Cmax subgroup | patients with grade 1 cardiac disorders | 6%

Some of these lines once more:
SMILES | test | test system | setting | measurement | value
Cc1cc(NC2CCN(C(=O)OC3CCN(C(=O)/C=C/CN(C)C)C3)CC2)n2ncc(C(C)C)c2n1 (centres unmarked) | – | patients with advanced solid tumours | dose not given, QD arm, grade 3 or higher | patients with Constipation | 0%
Cc1cc(-c2nnc(N)nc2-c2ccc(F)cc2)cc(Cl)n1 | item: Myositis | IO-naive mCRPC patients, male | oral, dose not given, treatment-related, grade 2 | patients with immune-mediated AE | 0%
